Measurements from different studies.
Each numbered part is a random draw from the data of one study; scales do not carry over between parts. Substitutions count along the parent as printed.

Study 1
Target: RNA binding protein fox-1 homolog 2, RRM domain, GST-SBP tag (RBFOX2, Homo sapiens, UniProt O43251-10, residues 100-194)
Technique: RNA Bind-n-Seq
Molecule type: RNA
Medium: in vitro
Tested at: 365 nM
Setting: natural RNA segment, single round, ends assumed
Relative to: no-protein control
Direction: higher = stronger binding
Measurement: RBNS enrichment (R)
Target sequence (chain): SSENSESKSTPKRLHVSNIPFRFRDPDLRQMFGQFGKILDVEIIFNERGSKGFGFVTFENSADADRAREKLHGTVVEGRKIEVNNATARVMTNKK
Oligonucleotide = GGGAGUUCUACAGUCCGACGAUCAUAAACUUUUAAAAAGCAGGCACUAAUAUAUAUUUCUUCCAGCCUUUGAUUACAAAUUUGUCCUUGCACAUGUUAAGAUGAAUUAUCUCCUAAAAAUAUCAUUGUUCUUGUGGAAUUCUCGGGUGCCAA; result = 0.431
Oligonucleotide = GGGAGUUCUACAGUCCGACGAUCGCACUCGUGCUGGGCAUCCUGCCGAAGUGGCCACACUGCCACACUGCUCUGGCUCACGAGUAUUGGAGGACCUGAGCACCUCAGGCCGUGGGUCUGUGUGGGGUGUGUGGUGGAAUUCUCGGGUGCCAA; result = 0.532
Oligonucleotide = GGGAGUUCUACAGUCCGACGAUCAAUGGGGCCAGCUGAUUAAAGAAAAAGAACCCCCACACAACAGGACUGUCAGGACAGAUUGAGUUAACCCCUCAAGCCAAGUCCCGGGUGUCAGGAACAGUUGUCCAUGCUGGAAUUCUCGGGUGCCAA; result = 0.569
Oligonucleotide = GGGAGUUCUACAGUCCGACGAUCUUAUUUAUUGAACAUUUGGGGUUUCAGUUGUAAAGCCACAACUACAGGUAGGACCUGAUAUUUCGGCGAGGGACCAUUUCAGACCAAAAUGUACUGUUAAUUUUUUUUAAUGGAAUUCUCGGGUGCCAA; result = 0.686
Oligonucleotide = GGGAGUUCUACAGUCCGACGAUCAGCUUUGGCUAGCUAAACAUGUUUAAUAAGGCCAUAAAAACUGAGAAAGAAAAACAUUCAACUUUAGCUGAAGCUCCUUUGAUACAAAAGUUUCAUUCUGUCAGAAAUAAUGGAAUUCUCGGGUGCCAA; result = 0.328
Oligonucleotide = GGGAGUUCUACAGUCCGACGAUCGGAAAGAAAUCGGGAUGCCGCGGAGCACAGAGUGAUUUGGAACUCCAUUCCACCUGACCCUGUGUGUACAAUCCAGGAAAAAAACAAACCCCACUCAGAAACAGAGAAAAUGGAAUUCUCGGGUGCCAA; result = 0.279
Oligonucleotide = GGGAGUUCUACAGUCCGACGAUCGAUGUGCAGCAGAUUGGAAGGAGACACAGAUGUUCGGUUUUUUUCCUGUUUCUGAAAAGAAAUAAUAAUAUCCAGGUCAACAGAAUGAAAAAUGAAAGAUGAUUUGCAAUUGGAAUUCUCGGGUGCCAA; result = 1.2
Oligonucleotide = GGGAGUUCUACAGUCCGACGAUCAUCAAUUUUAAUGACGCUCCUGGUAUGGAACCUCAGAUAUACCCUAUUGGAGACAAUCCUUUGAUCAUAAAUUCUCCCCAACUAUAAAUCAUUUUAUGUCUUUAUCAUAGUGGAAUUCUCGGGUGCCAA; result = 0.435

Study 2
Target: Ras GTPase-activating protein-binding protein 1, full length (G3BP1, Homo sapiens, UniProt Q13283)
UniProt Q13283, sequence (whole entry, looked up): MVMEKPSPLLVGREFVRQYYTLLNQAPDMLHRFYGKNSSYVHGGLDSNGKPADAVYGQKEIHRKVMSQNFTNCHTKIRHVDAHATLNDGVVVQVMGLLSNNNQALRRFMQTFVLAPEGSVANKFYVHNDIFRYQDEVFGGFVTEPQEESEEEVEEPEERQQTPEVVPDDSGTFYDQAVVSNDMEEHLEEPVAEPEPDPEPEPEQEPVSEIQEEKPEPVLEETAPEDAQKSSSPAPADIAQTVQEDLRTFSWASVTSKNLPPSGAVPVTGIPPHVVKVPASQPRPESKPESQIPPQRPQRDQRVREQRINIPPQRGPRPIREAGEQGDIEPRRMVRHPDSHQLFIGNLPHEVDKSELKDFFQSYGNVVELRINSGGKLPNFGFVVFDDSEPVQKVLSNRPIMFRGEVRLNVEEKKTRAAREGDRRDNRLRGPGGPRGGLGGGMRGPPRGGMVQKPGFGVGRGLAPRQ
Technique: RNA Bind-n-Seq
Molecule type: RNA
Medium: in vitro
Tested at: 200 nM
Setting: whole 134-nt RNA, ends assumed
With: 150 mM LiCl
Relative to: input library
Direction: higher = stronger binding
Measurement: log2 enrichment
Library: 7-deaza-guanosine replaces G
Oligonucleotide = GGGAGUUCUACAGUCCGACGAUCCACAGACAACACGCACCCACACAGACACAGAGGGAAGGGGUUGGGAUGGGGACAGGGUGCACAACAGGGCGGGGUAGGACCCCAGCCCCUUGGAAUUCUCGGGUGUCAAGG; result = 0.138
Oligonucleotide = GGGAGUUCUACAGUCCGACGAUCAGUCCUGUGCUACACAUCGUAUGUACCGAAUCGGAAAAAAAGGUUUGGUUUUUUUGGAAAGUAUUAUGUUACGCCGUUCGGAUCUGCACUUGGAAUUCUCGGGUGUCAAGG; result = -2.52
Oligonucleotide = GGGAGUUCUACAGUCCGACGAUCCAAGUCCUGUGCUACACAUCGUAUGUACCGAAUCGGUUUUUUUGGAAAAAGGAGGAAAGUAUUAUGUUACGCCGUUCGGAUCUGCACUUCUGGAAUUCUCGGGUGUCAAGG; result = -1.03
Oligonucleotide = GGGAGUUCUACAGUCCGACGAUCCUCAAGUCCUGUGCUACACAUCGUAUGUACCGAAUCGGUUGGGGUUGGGUUGGAAAGUAUUAUGUUACGCCGUUCGGAUCUGCACUUCCAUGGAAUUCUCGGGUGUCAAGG; result = 0.476
Oligonucleotide = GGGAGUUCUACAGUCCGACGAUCCUCAAGUCCUGUGCUACACAUCGUAUGUACCGAAUCGGGGUUGGGGUUGGUUGGAAAGUAUUAUGUUACGCCGUUCGGAUCUGCACUUCCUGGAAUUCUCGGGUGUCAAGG; result = -0.0138
Oligonucleotide = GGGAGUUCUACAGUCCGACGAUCGUCCUGUGCUACACAUCGUAUGUACCGAAUCGGUUUUUUUGGAAAAAAAGGUUUUUGGAAAGUAUUAUGUUACGCCGUUCGGAUCUGCACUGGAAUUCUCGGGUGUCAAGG; result = -3.1
Oligonucleotide = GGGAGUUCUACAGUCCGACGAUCUCAAGUCCUGUGCUACACAUCGUAUGUACCGAAUCGGAAGGGGAAGGGGAAGGGGAAAGUAUUAUGUUACGCCGUUCGGAUCUGCACUUCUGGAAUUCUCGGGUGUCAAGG; result = 0.132
Oligonucleotide = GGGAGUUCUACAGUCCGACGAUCCCUGUGCUACACAUCGUAUGUACCGAAUCAAAUUUUUUUAAACCCCCCCAAAUUUUUAAAAAAGUAUUAUGUUACGCCGUUCGGAUCUGCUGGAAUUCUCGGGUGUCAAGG; result = 0.78

Study 3
Target: Hepatocyte nuclear factor 3-alpha (Foxa1, Mus musculus, UniProt P35582, residues 1-468, full length assumed)
Technique: EMSA with sequencing
Molecule type: double-stranded DNA, one strand shown
Medium: in vitro
Tested at: 10 and 20 nM
Setting: whole designed probe, mean of two concentrations, ends assumed
Relative to: negative control set to 0
Direction: higher = stronger binding
Measurement: normalised bound fraction
Construct (chain): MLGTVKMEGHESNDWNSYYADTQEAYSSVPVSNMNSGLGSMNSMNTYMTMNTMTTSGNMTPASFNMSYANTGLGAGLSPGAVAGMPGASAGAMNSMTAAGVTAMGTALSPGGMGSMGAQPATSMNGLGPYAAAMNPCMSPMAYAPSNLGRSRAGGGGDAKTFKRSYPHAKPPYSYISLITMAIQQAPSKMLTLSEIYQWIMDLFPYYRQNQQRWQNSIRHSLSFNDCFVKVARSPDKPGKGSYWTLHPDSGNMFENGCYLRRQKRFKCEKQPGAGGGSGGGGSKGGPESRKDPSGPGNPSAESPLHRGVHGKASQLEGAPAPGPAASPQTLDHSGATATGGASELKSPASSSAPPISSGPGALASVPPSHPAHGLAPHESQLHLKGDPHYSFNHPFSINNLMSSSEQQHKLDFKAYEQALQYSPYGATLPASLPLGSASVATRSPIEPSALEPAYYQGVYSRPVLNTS
Oligonucleotide = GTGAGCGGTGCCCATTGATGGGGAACAATCTGTGAGGATTTTTTGTTTAGAAATAAACAAATTACCCACTTCTCACTATCTTTTTGCACTAATACCTTGAAAAAATGTAAATTGGACAGTGTAAACATGCAAAATTGTTGGCATGTAGGAGAGAATTTTTCTACTTTTCTAAAGATTCAAGACTCGTTTTTGAGTCCTAAAAACAAACACATTAAGGACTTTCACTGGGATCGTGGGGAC; result = 0.51 ratio
Oligonucleotide = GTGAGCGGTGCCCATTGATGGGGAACTGGGGTAAAGAGCCCTCACCCTGCCTGCCACACACTGGTAGTGTCAGATAACATTGAAGGGTGTTAGTTTAAAGGCTTCATGGACTCTATAATGTCATCTAAAGTGCTGTTAACTTTCTTCTGGGTCTCAGGCTCCTGATGTAGAGTCAGTGGAGCAACCCTGCCATCTGCTGTTATGCTGTTGATGTTGCTGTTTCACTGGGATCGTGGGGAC; result = 0.0811 ratio
Oligonucleotide = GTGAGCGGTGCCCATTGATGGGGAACATGACTGACATAGATACATCTCTCAGAGTGAATAGGAAATCATTAACAACTATTTCATGAGTGAAGTTTCAATATATTTTTTAAAATTCAGAGTAAACATCAAGATGGACTTTATTTTACCTAACACAACAATTCGGTCACCCTGTCATCCTAAAAATCTCTATAAGTAAAACTGATTGTAAGGATATGTTAATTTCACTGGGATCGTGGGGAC; result = 0.176 ratio
Oligonucleotide = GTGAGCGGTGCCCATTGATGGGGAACATCTTCCCCCTCTTCCTTGCCCCACCAGCTCACCTACGGGGGTTATTTGCAGATAGGAAAATAAATAAAGCCGGCATTCGTTAACGCAGTTCTGGCGCAAACTGCTGTTTGCTCTGGATGAATCATGGTCCTTTGGCGAGGCGTGGCTCCGGGAGAGCAAAGCACCGTGTCAGGGCCATGATCCGGGCTCGCCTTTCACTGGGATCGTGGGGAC; result = 0.342 ratio
Oligonucleotide = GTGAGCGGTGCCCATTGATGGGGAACCTAGCTCCAGTCTTAGCATGGCAACTTCTTCCTGCAACGTACTATTTTCATGCAAGAAGTCTTTTTCTTTCTTATAACTAAGAGAAAGCTAAGTAATCTAAGGGAACTTTTAGTTAGCACTCAATAGATTGACATATCATGATTTCTTCTGAAATTAAAAAATAACGTGTATTTGTATAATGAAAGAATCCACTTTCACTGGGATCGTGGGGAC; result = 0.127 ratio

Study 4
Target: Sal-like protein 4, full length isoform B (SALL4, Homo sapiens, UniProt Q9UJQ4-2, residues 1-616)
Technique: universal PBM
Molecule type: double-stranded DNA, one strand shown
Medium: in vitro
Tested at: not given
Setting: 8-mer, flanks averaged, mean of replicates
Direction: higher = stronger binding
Measurement: E-score
Oligonucleotide = GTACTACA; result = 0.21
Oligonucleotide = CGACGCTC; result = -0.0632
Oligonucleotide = CCTACAGA; result = 0.00236
Oligonucleotide = GTGCTAAC; result = -0.0853
Oligonucleotide = CGCGATTA; result = 0.0547
Oligonucleotide = AGCAATAG; result = 0.00421
Oligonucleotide = AGCGGATG; result = -0.274
Oligonucleotide = GCGTCGAA; result = -0.101
Oligonucleotide = CAAACCAG; result = -0.0927
Oligonucleotide = AAGGGTGC; result = -0.131
Oligonucleotide = CGGGAAAG; result = -0.177
Oligonucleotide = AGTTTCGG; result = -0.152
Oligonucleotide = GCATGATA; result = 0.295
Oligonucleotide = ATAGTACC; result = 0.102
Oligonucleotide = CAGTCGAG; result = -0.146
Oligonucleotide = ATGTTCCA; result = 0.0525
Oligonucleotide = ATAAGAAA; result = 0.326
Oligonucleotide = GCACCTGA; result = 0.02
Oligonucleotide = ATTCGATC; result = 0.0103
Oligonucleotide = GCGGCTAC; result = -0.302

Study 5
Target: CCND1, cyclin fold, Cln2 fusion (human)
Technique: yeast growth competition, sequencing
Medium: yeast
Setting: weak parent motif
Relative to: not given
Direction: higher = stronger binding
Measurement: normalised enrichment score
Starting sequence: ANKRD17 docking peptide (human); PSVRRQLFVTVVK
Change = PSVRAQLFVTVVK [R5A]; result = 0.735
Change = PSVARQLFVTVVK [R4A]; result = 0.84
Change = PSVRAQAFVTVVK [R5A L7A]; result = -0.127
Change = PSVRRQLLVTVVK [F8L]; result = -0.00898
Change = ASVRRQLFVTVVK [P1A]; result = 0.318
Change = PSVRRQAFVTVVK [L7A]; result = 0.53
Change = PSVRRQLFATVVK [V9A]; result = 0.248
Change = PSVRRQLFVTVVA [K13A]; result = -0.26
Change = PSVRRQLFVTVAK [V12A]; result = 0.553
Change = PSVRKQLFVTVVK [R5K]; result = -0.0285

For quick reference, copied from above (study 5):
Change = PSVARQLFVTVVK [R4A]; result = 0.84
Change = PSVRAQAFVTVVK [R5A L7A]; result = -0.127
Change = PSVRRQLLVTVVK [F8L]; result = -0.00898
Change = ASVRRQLFVTVVK [P1A]; result = 0.318
Change = PSVRRQAFVTVVK [L7A]; result = 0.53
Change = PSVRRQLFATVVK [V9A]; result = 0.248
Change = PSVRRQLFVTVVA [K13A]; result = -0.26
Change = PSVRRQLFVTVAK [V12A]; result = 0.553
Change = PSVRKQLFVTVVK [R5K]; result = -0.0285
